# Measurements gathered from unrelated publications.
# Numbered parts are unrelated; each lists some results of a single study.
# Sequence of UniProt Q14289 (whole entry, looked up): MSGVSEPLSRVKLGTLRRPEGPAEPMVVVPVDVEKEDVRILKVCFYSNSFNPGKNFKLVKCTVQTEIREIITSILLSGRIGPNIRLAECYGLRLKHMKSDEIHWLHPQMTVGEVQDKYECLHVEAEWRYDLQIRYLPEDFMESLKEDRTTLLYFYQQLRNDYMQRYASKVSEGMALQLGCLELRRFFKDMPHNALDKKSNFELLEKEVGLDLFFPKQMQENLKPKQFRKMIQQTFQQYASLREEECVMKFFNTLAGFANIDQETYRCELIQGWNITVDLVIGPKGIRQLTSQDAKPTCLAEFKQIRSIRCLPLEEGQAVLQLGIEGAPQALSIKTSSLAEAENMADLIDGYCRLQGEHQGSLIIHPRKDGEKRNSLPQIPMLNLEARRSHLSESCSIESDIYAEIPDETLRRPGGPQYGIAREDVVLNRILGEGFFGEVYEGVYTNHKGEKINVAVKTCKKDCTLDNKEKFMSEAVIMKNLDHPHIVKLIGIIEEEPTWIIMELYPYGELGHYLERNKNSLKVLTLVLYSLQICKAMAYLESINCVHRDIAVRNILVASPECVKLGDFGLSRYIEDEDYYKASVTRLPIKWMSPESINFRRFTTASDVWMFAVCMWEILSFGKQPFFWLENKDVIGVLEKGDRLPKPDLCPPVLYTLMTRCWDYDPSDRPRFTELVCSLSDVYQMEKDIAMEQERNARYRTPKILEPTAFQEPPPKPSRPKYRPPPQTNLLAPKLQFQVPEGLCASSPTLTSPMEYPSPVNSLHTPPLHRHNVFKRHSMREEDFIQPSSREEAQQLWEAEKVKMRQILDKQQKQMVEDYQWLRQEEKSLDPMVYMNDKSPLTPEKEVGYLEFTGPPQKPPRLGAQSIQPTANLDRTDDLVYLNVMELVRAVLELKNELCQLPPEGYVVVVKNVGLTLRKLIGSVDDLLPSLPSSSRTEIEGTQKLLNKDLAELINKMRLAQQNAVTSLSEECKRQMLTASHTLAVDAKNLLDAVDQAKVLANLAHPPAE

# Sample 1
# Target: HLA class I histocompatibility antigen, A alpha chain, allele A*26:03 (Homo sapiens, UniProt P04439)
# Effect on: peptide-MHC binding
# Molecule type: peptide
# Tested at: concentration not given
Sequence,binding
EKLKSLYNTV,inactive
RQADILRQF,inactive
IFDDLQGSL,inactive
SQMPPQKIM,inactive
TVLEFILQK,inactive
YHRPLTGYM,inactive
TESDAIRTL,inactive
LEKWNLGII,inactive

# Sample 2
# Target: UBE2D4 UBC core domain (UniProt Q9Y2X8)
# Sequence of UniProt Q9Y2X8 (whole entry, looked up): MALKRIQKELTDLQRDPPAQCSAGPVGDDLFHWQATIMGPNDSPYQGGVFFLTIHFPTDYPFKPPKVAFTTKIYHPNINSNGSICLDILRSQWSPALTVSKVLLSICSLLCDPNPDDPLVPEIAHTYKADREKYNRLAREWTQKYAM
# Technique: yeast two-hybrid
# Sample: yeast
# Setting: mostly zero background
# Relative to: not given
# Direction: higher = stronger interaction
# B1: SHPRH RING domain (UniProt Q149N8); chain KTSGGVNPEPCPICARQLGKQWAVLTCGHCFCNECISIIIEQYSVGSHRSSIKCAICRQTTSHKEISY
# B2: RNF10 RING domain (UniProt Q8N5U6); chain VRICSHEVPSCPICLYPPTAAKITRCGHIFCWACILHYLSLSEKTWSKCPICYSSVHKKDLKS
# B3: RNF7 RING domain (UniProt Q9UBF6); chain AICRVQVMDACLRCQAENKQEDCVVVWGECNHSFHNCCMSLWVKQNNRCPLCQQDWVVQRIGK
Sequence,lacZ reporter activity
B1 (SHPRH RING domain),0
FLSKVEETFQCICCQELVFRPITTVCQHNVCKDCLDRSFRAQVFSCPACRYDLGRSYAMQ (UHRF1 RING domain (UniProt Q96T88)),0
B2 (RNF10 RING domain),0
GSEEEEIPFRCFICRQAFQNPVVTKCRHYFCESCALEHFRATPRCYICDQPTGGIFNPA (RNF113B RING domain (UniProt Q8IZP6)),0
EIKDYKARLTCPCCNMRKKDAVLTKCFHVFCFECVKTRYDTRQRKCPKCNAAFGANDFHR (RNF20 RING domain (UniProt Q5VTR2)),0
EDVLSKDAGECAICLEELQQGDTIARLPCLCIYHKGCIDEWFEVNRSCPEHPSD (ZNRF2 RING domain (UniProt Q8NHG8)),14800
B3 (RNF7 RING domain),0
KITELNPHLMCALCGGYFIDATTIVECLHSFCKTCIVRYLETNKYCPMCDVQVHKTRPLL (PCGF2 RING domain (UniProt P35227)),0

# Further values, each from its own experiment
SMILES,target or system,test,setting,scale,quantity,value
CCOC(=O)Nc1ccc(NCc2ccc(F)cc2)cc1N,A-375,,"100 µM, 36 h",,viability,118%
CC(C)(C)c1cc(C=C(C#N)C#N)cc(Br)c1O,"PTK2B (Homo sapiens, UniProt Q14289)","enzyme activity, inhibitor",0.5 µM,relative to: control,remaining activity,99.3%
